Results from different studies.
Every numbered part comes from another study and shows a few of its results, in no order. Several values in a cell are separate wells, animals, samples, runs or records. Converted amounts (≈) assume the structure as drawn.
UniProt P61075, sequence (whole entry, looked up): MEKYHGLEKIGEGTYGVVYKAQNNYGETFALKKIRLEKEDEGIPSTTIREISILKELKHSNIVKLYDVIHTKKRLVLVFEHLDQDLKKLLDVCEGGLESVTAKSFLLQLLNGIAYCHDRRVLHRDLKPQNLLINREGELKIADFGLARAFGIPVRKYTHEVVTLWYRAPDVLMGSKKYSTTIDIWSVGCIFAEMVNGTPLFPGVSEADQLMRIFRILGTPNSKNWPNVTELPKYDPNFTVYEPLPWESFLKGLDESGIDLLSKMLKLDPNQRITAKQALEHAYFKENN
UniProt Q99720, sequence (whole entry, looked up): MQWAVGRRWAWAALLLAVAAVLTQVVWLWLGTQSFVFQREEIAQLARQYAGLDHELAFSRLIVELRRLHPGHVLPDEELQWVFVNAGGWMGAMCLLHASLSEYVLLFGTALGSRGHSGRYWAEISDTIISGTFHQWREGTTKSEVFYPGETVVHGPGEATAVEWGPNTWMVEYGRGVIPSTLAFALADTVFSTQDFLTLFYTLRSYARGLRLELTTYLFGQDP
UniProt P35348, sequence (whole entry, looked up): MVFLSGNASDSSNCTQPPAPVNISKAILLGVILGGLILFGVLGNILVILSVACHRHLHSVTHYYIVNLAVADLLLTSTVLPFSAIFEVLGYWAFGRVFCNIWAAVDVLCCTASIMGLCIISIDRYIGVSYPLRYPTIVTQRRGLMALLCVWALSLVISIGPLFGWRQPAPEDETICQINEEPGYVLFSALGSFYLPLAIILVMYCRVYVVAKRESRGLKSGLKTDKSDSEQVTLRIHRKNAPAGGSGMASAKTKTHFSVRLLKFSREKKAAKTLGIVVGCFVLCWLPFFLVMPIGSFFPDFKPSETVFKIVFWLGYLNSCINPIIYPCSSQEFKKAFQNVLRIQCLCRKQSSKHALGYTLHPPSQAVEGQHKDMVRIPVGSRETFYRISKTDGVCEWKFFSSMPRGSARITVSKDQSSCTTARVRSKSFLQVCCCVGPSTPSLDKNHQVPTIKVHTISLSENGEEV

Set 1
SMILES: CCCCC[C@@H](O)CC(=O)N[C@H]1COC(=O)[C@H](CO)NC(=O)CNC(=O)[C@H]([C@@H](C)O)NC(=O)[C@H](Cc2ccccc2)NC(=O)[C@@H](Cc2c[nH]c3ccccc23)NC(=O)[C@@H]([C@H](C)O)NC(=O)[C@H](CC(N)=O)NC(=O)[C@@H]([C@H](C)O)NC(=O)[C@H](CC(C)C)NC(=O)[C@@H](Cc2c[nH]c3ccccc23)N(C)C(=O)CNC(=O)[C@H](CO)NC(=O)[C@@H](CO)NC1=O
Organism: Staphylococcus aureus
Strain: USA300
It gave 8 µg/mL (≈ 4.79 µM) for MIC (added: ubiquinone 0 µg/mL).
added: ubiquinone 64 µg/mL — MIC: 8 µg/mL (≈ 4.79 µM).
For added: menaquinone 4 µg/mL: MIC read over 64 µg/mL.
It gave over 64 µg/mL for MIC (added: menaquinone 8 µg/mL).
The MIC was 16 µg/mL (≈ 9.59 µM) (added: menaquinone 0.125 µg/mL).
added: menaquinone 0 µg/mL — MIC: 8 µg/mL (≈ 4.79 µM).

Set 2
Compound: CNC(=O)c1ccc(-c2cnn3ccc(C(=O)N(C)c4ccc(Cl)c(C(=O)OC)c4)cc23)cc1
Organism: Cryptosporidium parvum
Species: neonatal calves
Dose: dose not given
Reading: direction not given
For day 6 post-treatment: “fecal consistency score” read 1 and 2.
The “fecal consistency score” was 1 and 2 (day 8 post-treatment).
The “fecal consistency score” was 3 and 1 and 2 (day 3 post-treatment).

Set 3
Target: Calcium/calmodulin-dependent protein kinase type II subunit alpha (CAMK2A, Homo sapiens, UniProt Q9UQM7)
UniProt Q9UQM7, sequence (whole entry, looked up): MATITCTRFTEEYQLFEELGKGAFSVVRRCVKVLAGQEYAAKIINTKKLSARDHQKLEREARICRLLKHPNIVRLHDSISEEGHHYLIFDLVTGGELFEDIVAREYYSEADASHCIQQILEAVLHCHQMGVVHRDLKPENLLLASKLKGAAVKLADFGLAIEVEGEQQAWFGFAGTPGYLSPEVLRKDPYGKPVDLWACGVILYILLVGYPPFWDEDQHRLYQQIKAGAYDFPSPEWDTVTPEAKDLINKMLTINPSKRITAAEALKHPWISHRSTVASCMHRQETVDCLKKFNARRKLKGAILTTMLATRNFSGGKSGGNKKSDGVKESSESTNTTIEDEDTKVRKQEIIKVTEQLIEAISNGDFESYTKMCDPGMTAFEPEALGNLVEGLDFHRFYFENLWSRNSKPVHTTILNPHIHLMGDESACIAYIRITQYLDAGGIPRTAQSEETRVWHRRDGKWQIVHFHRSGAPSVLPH
Read-out: enzyme activity
Mode: inhibitor
Tested at: 10 µM
With `C[C@]12CC[C@H](O)C[C@H]1CC[C@@H]1[C@@H]2C[C@@H](O)[C@]2(C)[C@@H](C3=CC(=O)OC3)CC[C@]12O` the inhibition was 27%.
`CCCCc1ccc(C(=O)O)nc1` gave an inhibition of -7%.
For `C/C=C/c1cc(OC)c(OC)cc1OC`, the inhibition was 18%.
With `CC[C@@]1(O)C(=O)OCc2c1cc1n(c2=O)Cc2cc3cc(OC)ccc3nc2-1` the inhibition was -17%.
The inhibition of `O=[N+]([O-])C(Br)(CO)CO` is reported as 4%.
`C/C=C/C#CC#C/C=C/c1ccco1` has an inhibition of -15%.

Other studies, line by line
With `Cc1c(N2CCNCC2)nc2ccc(Br)cc2c1C(=O)NC[C@H](CCC(=O)O)c1ccccc1Cl` the inhibition was 36.5% (Sigma non-opioid intracellular receptor 1 (SIGMAR1, Homo sapiens, UniProt Q99720); ligand displacement; 10 µM).
For `Cc1cc(C)c(-n2ccn3nc(-c4cccnc4)cc23)cc1NC(=O)c1cc(C#N)cc(S(F)(F)(F)(F)F)c1`, the remaining binding was 90.9% (Cyclin-dependent kinase 2 homolog (CRK2, Plasmodium falciparum, UniProt P61075); cell-free assay, competition with immobilised ligand; 0.1 µM).
For `CNC(=O)c1cc(C(=O)NC2CC2)cn(Cc2ccccc2)c1=O`, the inhibition was -0.64% (Alpha-1A adrenergic receptor (ADRA1A, Homo sapiens, UniProt P35348); binding, radioligand binding; 10 µM).

Some of these lines once more (other studies, line by line):
For `Cc1cc(C)c(-n2ccn3nc(-c4cccnc4)cc23)cc1NC(=O)c1cc(C#N)cc(S(F)(F)(F)(F)F)c1`, the remaining binding was 90.9% (Cyclin-dependent kinase 2 homolog (CRK2, Plasmodium falciparum, UniProt P61075); cell-free assay, competition with immobilised ligand; 0.1 µM).
With `Cc1c(N2CCNCC2)nc2ccc(Br)cc2c1C(=O)NC[C@H](CCC(=O)O)c1ccccc1Cl` the inhibition was 36.5% (Sigma non-opioid intracellular receptor 1 (SIGMAR1, Homo sapiens, UniProt Q99720); ligand displacement; 10 µM).
For `CNC(=O)c1cc(C(=O)NC2CC2)cn(Cc2ccccc2)c1=O`, the inhibition was -0.64% (Alpha-1A adrenergic receptor (ADRA1A, Homo sapiens, UniProt P35348); binding, radioligand binding; 10 µM).
